Measured values pooled from the literature.
Protocols differ between the studies behind these lines. “And” joins repeats or separate records; there may be more than shown. ± marks the error that the study gave.
GLP1R: Glucagon-like peptide 1 receptor (GLP1R, Homo sapiens, UniProt P43220)

SMILES	target	assay	test system	conditions	scale	quantity	result
Nc1ncnc2c1ncn2[C@@H]1O[C@H](CO)[C@@H](O[C@H]2O[C@H](CO)[C@@H](OP(=O)(O)O)[C@H](OP(=O)(O)O)[C@H]2O)[C@H]1O	Inositol 1,4,5-trisphosphate-gated calcium channel ITPR1, N-terminal region (Itpr1, Rattus norvegicus, UniProt P29994, del318-332)	[3H]IP3 competition binding	N-terminal fragment	cytosol-like medium	–	Hill coefficient	0.9 ± 0.4
CC(=O)c1ccc(NC(=O)c2nc(-c3ccccc3)n(-c3ccc(Cl)cc3)n2)cc1	Cannabinoid receptor 1 (CNR1, Homo sapiens, UniProt P21554)	–	HEK293 expressing CB1-GFP	10 µM, 6 h	relative to: untreated	cell surface receptor level	increased
COc1cccc(C(=O)N[C@H]2[C@@H](O)[C@@H](CO)O[C@@H](S[C@@H]3O[C@H](CO)[C@H](O)[C@H](NC(=O)c4cccc(OC)c4)[C@H]3OS(=O)(=O)O)[C@@H]2O)c1	Galectin-3 (LGALS3, Homo sapiens, UniProt P17931)	ITC	–	–	–	–TΔS	3.73 ± 0.0956 kcal/mol
COc1cc(C(=O)NC2CCC(N3CCN(CC4CCC5(CCCC5)C4)CC3)CC2)c(F)cc1Nc1ncc2c(n1)N(C1CCCC1(F)F)CC(F)(F)C(=O)N2C (stereo not shown)	Ephrin type-A receptor 2 (EPHA2, Homo sapiens, UniProt P29317)	cell-free assay, TR-FRET	–	10 µM	–	inhibition	0.61%
CCCN(CC(=O)N(CCC)CC(=O)N(CC(N)=O)Cc1cn(CCCNC(=O)CCCOc2cccc(-c3nc4ccc(-c5nc6ccc(N7CCN(C)CC7)cc6[nH]5)cc4[nH]3)c2)nn1)C(=O)CNCc1cn(CCCNC(=O)CCCOc2cccc(-c3nc4ccc(-c5nc6ccc(N7CCN(C)CC7)cc6[nH]5)cc4[nH]3)c2)nn1	MBNL1–r(CUG)109 complex	MBNL1 displacement	0.65 pmol r(CUG)109	unit not given, together with: yeast tRNA 3.7 µM	relative to: monomer 2 IC50 per module	multivalent effect	2.5
NCc1ccc(NC(=O)c2ccc3ccccc3c2O)cc1	Plasminogen (PLG, Homo sapiens, UniProt P00747)	enzyme activity, inhibitor	–	10 µM	–	inhibition	> 70%
C[n+]1cn(C2OC(COP(=O)([O-])OP(=O)(O)OP(=O)(O)OCC3OC(n4cnc5c(=O)[nH]c(N)nc54)C(O)C3O)C(O)C2O)c2nc(NCc3cc(-c4ccccc4)no3)[nH]c(=O)c21 (stereo not shown)	DNA-directed RNA polymerase (Enterobacteria phage SP6, UniProt P06221)	in vitro transcription, densitometry	short RNA	–	–	capping efficiency	88.5% and ~90%
O=C(O)[C@H]1O[C@@H](O[C@@H]2c3cc4ccc5cccc6c7ccccc7c(c3C=C[C@H]2O)c4c56)[C@H](O)[C@@H](O)[C@@H]1O	UDP-glucuronosyltransferase 1A10 (UGT1A10, Homo sapiens, UniProt Q9HAW8)	glucuronidation, substrate	HEK293 homogenate	–	relative to: UGT1A10 over UGT1A7 and UGT1A8	catalytic efficiency ratio	12 to 72 fold
CN(Cc1cnc2ccccc2n1)C(=O)Nc1nc(-c2ccco2)n[nH]1	Single-stranded DNA cytosine deaminase (AICDA, Homo sapiens, UniProt Q9GZX7)	deaminase activity, inhibitor, alkaline cleavage	293T lysate, His-tagged AID	concentration not given, DMSO 100%	–	remaining activity	43.9%
CCc1c(-c2ccc3[nH]ncc3c2)cnc(N)c1-c1ccc(O)cc1	Ubiquitin carboxyl-terminal hydrolase 7 (USP7, Homo sapiens, UniProt Q93009, V517F)	enzyme activity, inhibitor, Ub-AMC	–	–	relative to: V517F over wild type	IC50 fold change	18 fold
C=C1CN(S(=O)(=O)c2ccc(C)cc2)CCCN(Cc2ccccc2)CCCN(S(=O)(=O)c2ccc(C)cc2)C1	T-cell surface glycoprotein CD4 (CD4, Homo sapiens, UniProt P01730)	–	SUP-T1	10 µM, 24 h	–	surface expression reduction	74%
Cn1ccc2c(N3CCN(CCCCOc4ccc5c(c4)NC(=O)CC5)CC3)cccc21	D(2) dopamine receptor (DRD2, Homo sapiens, UniProt P14416)	β-arrestin recruitment, agonist, BRET	–	–	–	Emax	33%
Nc1ncnc2c1ncn2[C@@H]1O[C@H](COP(=O)(O)NP(=O)(O)OP(=O)(O)O)[C@@H](O)[C@H]1O	S-adenosylmethionine synthase isoform type-2 (MAT2A, Homo sapiens, UniProt P31153)	AdoMet formation, substrate	–	enzyme 25 µM, together with: methionine	–	steady-state rate	0.0019 ± 0.00038 s⁻¹
Cn1c(=S)c2[nH]c(SCCc3ccccc3)nc2n(C)c1=O	Androgen receptor (AR, Homo sapiens, UniProt P10275)	reporter gene, antagonist, PSA-luciferase	HeLa-A6	10 µM, 24 h, together with: 5 nM dihydrotestosterone	relative to: maximal activity	remaining activity	114%
COc1ccc(-c2cc(C(F)(F)F)nc(SCCC(=O)Nc3cc(F)ccc3F)n2)cc1	GLP1R	cAMP accumulation, positive allosteric modulator	HEK-293T overexpressing GLP1R	together with: EC20 GLP-1	–	Emax	30 ± 13%
CC(C)CC(NC(=O)C(NC(=O)NC(C(=O)O)C(C)C)C1CCNC(=N)N1)C(=O)NCCCNC(C(=O)O)C(OC1OC(CN)C(O)C1O)C1OC(n2ccc(=O)[nH]c2=O)C(O)C1O (stereo not shown)	Phospho-N-acetylmuramoyl-pentapeptide-transferase (mraY, Aquifex aeolicus, UniProt O66465, Q305A)	ITC	–	concentration not given, Q305A mutant	–	binding stoichiometry	0.73 ± 0.08 sites
CC(=O)N/C(N)=N/C(=N\S(=O)(=O)c1ccc(C(F)(F)F)cc1)N1C[C@H](c2ccccc2)C(c2ccc(Cl)cc2)=N1	Cannabinoid receptor 1 (CNR1, Homo sapiens, UniProt P21554, S123A)	S123A mutant vs wild type	–	concentration not given	relative to: wild type	binding affinity change	no effect
CCCCCCCCCCCCCCCC(=O)NCCCCCCNC(=O)C(CCCCNC(=O)CCN1C(=O)CC(SC[C@H](NC(=O)[C@H](CCCNC(=N)N)NC(=O)CNC(=O)[C@H](CCCCN)NC(=O)[C@@H](NC(=O)[C@H](CC(C)C)NC(=O)[C@H](Cc2c[nH]c3ccccc23)NC(=O)[C@H](C)NC(=O)[C@@H](NC(=O)[C@H](Cc2ccccc2)NC(=O)[C@H](CCC(=O)O)NC(=O)[C@H](CCCCN)NC(=O)[C@H](C)NC(=O)[C@H](C)NC(=O)[C@H](CCC(N)=O)NC(=O)CNC(=O)[C@H](CCC(=O)O)NC(=O)[C@H](CC(C)C)NC(=O)[C@H](Cc2ccc(O)cc2)NC(=O)[C@H](CO)NC(=O)[C@H](CO)NC(=O)[C@@H](NC(=O)[C@H](CC(=O)O)NC(=O)[C@H](CO)NC(=O)[C@@H](NC(=O)[C@H](Cc2ccccc2)NC(=O)[C@@H](NC(=O)CNC(=O)[C@H](CCC(=O)O)NC(=O)CNC(=O)[C@@H](N)Cc2c[nH]cn2)[C@@H](C)O)[C@@H](C)O)C(C)C)[C@@H](C)CC)C(C)C)C(N)=O)C1=O)NC(=O)CCN1C(=O)CC(SC[C@H](NC(=O)[C@H](CCCNC(=N)N)NC(=O)CNC(=O)[C@H](CCCCN)NC(=O)[C@@H](NC(=O)[C@H](CC(C)C)NC(=O)[C@H](Cc2c[nH]c3ccccc23)NC(=O)[C@H](C)NC(=O)[C@@H](NC(=O)[C@H](Cc2ccccc2)NC(=O)[C@H](CCC(=O)O)NC(=O)[C@H](CCCCN)NC(=O)[C@H](C)NC(=O)[C@H](C)NC(=O)[C@H](CCC(N)=O)NC(=O)CNC(=O)[C@H](CCC(=O)O)NC(=O)[C@H](CC(C)C)NC(=O)[C@H](Cc2ccc(O)cc2)NC(=O)[C@H](CO)NC(=O)[C@H](CO)NC(=O)[C@@H](NC(=O)[C@H](CC(=O)O)NC(=O)[C@H](CO)NC(=O)[C@@H](NC(=O)[C@H](Cc2ccccc2)NC(=O)[C@@H](NC(=O)CNC(=O)[C@H](CCC(=O)O)NC(=O)CNC(=O)[C@@H](N)Cc2c[nH]cn2)[C@@H](C)O)[C@@H](C)O)C(C)C)[C@@H](C)CC)C(C)C)C(N)=O)C1=O (stereo partly shown)	GLP1R	cAMP, agonist	HEK293 expressing GLP1R	–	relative to: GLP-1	potency ratio	9.5 fold
C[C@H](NC(=O)[C@@H]1CCCN1C(=O)[C@@H](NC(=O)[C@H](CCCCN)NC(=O)[C@H](CO)NC(=O)CNC(=O)[C@H](CO)NC(=O)[C@H](CC(N)=O)NC(=O)[C@H](Cc1c[nH]c2ccccc12)NC(=O)[C@H](C)NC(=O)[C@@H]1CCCN1C(=O)[C@@H](NC(=O)[C@H](CCCCN)NC(=O)[C@H](CO)NC(=O)CNC(=O)[C@@H](N)CO)[C@@H](C)OP(=O)(O)O)[C@@H](C)OP(=O)(O)O)C(=O)N[C@@H](Cc1c[nH]c2ccccc12)C(=O)N[C@@H](CC(N)=O)C(=O)N[C@@H](CO)C(=O)NCC(=O)N[C@@H](CO)C(=O)N[C@@H](CCCCN)C(=O)O	mRNA-capping enzyme subunit beta (pct1, Schizosaccharomyces pombe, UniProt Q9P6Q6)	fluorescence polarization	–	–	relative to: unphosphorylated over Thr1-phosphorylated	affinity fold loss	33 fold
O=C(O)C1OC(OC2C(C(=O)O)OC(OC3C(C(=O)O)OC(OC4C(C(=O)O)OC(O)C(O)C4O)C(O)C3O)C(O)C2O)C(O)C(O)C1O (stereo not shown)	Beta-lactoglobulin (LGB, Bos taurus, UniProt P02754, A134V/G80D)	isothermal titration calorimetry	50 mM KH2PO4	concentration not given, pH 4.00, 37 °C	–	binding enthalpy	-4.3 ± 0.167 kcal/mol
O=C(CCCCCCS)Nc1ccccc1	Histone deacetylase 8 (HDAC8, Homo sapiens, UniProt Q9BY41)	ITC in four buffers	–	concentration not given, pH 7.5	–	protons released on binding	0.39 ± 0.02 protons per ligand
O=Cc1ccc2cccc(O)c2n1	CD209 antigen (CD209, Homo sapiens, UniProt Q9NNX6)	binding, plate-based HRP	–	0.5 mM, immobilized protein	relative to: DMSO	activation	≥ 50%
CCOCCNC(=O)N1CCC[C@H](c2n[nH]c(-c3ccccc3)n2)C1	Aromatase (CYP19A1, Homo sapiens, UniProt P11511)	enzyme activity, inhibitor, MFC to HFC conversion	–	40 µM, together with: MFC substrate	–	apparent Vmax	0.45 pmol HFC/min/pmol P450
CSCC[C@H](NC(=O)[C@H](CO)NC(=O)[C@@H](NC(=O)[C@H](CCC(N)=O)NC(=O)[C@@H](CCCNC(=N)N)NC(=O)[C@@H](CCCNC(=N)N)NC(=O)[C@@H](CCCCN)NC(=O)[C@@H](CCCNC(=N)N)NC(C)=O)[C@@H](C)O)C(=O)N[C@H](C(=O)N[C@@H](CC(=O)O)C(=O)N[C@@H](Cc1ccccc1)C(=O)N[C@@H](Cc1ccc(O)cc1)C(=O)N[C@@H](Cc1c[nH]cn1)C(=O)N[C@@H](CO)C(=O)N[C@H](CCCCN)C(=O)N[C@H](CCCNC(=N)N)C(=O)N[C@H](CCCNC(=N)N)C(N)=O)[C@@H](C)O	Proliferating cell nuclear antigen (PCNA, Homo sapiens, UniProt P12004)	binding, isothermal titration calorimetry	–	pH 7.4, 25 °C, 0 mM NaCl, together with: p21 peptide	–	entropic term −TΔS	6.69 ± 0.717 kcal/mol
CCC(=O)Oc1ccc(Cl)cc1C(=O)Nc1ccc([N+](=O)[O-])cc1Cl	Androgen receptor, AR-V7 isoform (AR, Homo sapiens, UniProt P10275)	Western blot	CWR22Rv1	1 µM, 16 h	–	AR variant protein level	inhibited
CC[C@H](C)[C@H](NC(=O)[C@@H](NC(=O)[C@H](Cc1ccc(O)cc1)NC(=O)[C@H](Cc1ccc(O)cc1)NC(=O)[C@H](CC(N)=O)NC(=O)[C@H](CCC(=O)O)NC(=O)[C@H](Cc1ccccc1)NC(=O)[C@@H](NC(=O)[C@H](CO)NC(=O)[C@H](CCC(=O)O)NC(=O)[C@H](CCCCN)NC(=O)[C@H](Cc1ccccc1)NC(=O)[C@@H](N)CCCCN)C(C)C)C(C)C)C(=O)N[C@@H](Cc1ccc(O)cc1)C(=O)N[C@@H](CO)C(=O)N[C@@H](CO)C(=O)N[C@@H](CCSC)C(=O)N[C@@H](CC(C)C)C(=O)N[C@@H](Cc1ccc(O)cc1)C(=O)N[C@@H](CCCNC(=N)N)C(N)=O	Fibroblast growth factor 14 (Homo sapiens, UniProt Q92915)	–	–	–	–	kon	16900 ± 810 M⁻¹ s⁻¹
CNc1ccccc1C(=O)O[C@H]1C[C@H](n2cnc3c(N)ncnc32)O[C@@H]1COP(=O)(O)OP(=O)(O)O	Unconventional myosin-Va (Gallus gallus, UniProt Q02440, D297C/G292C/I296C/S293C/V295G)	stopped-flow FRET	–	4 °C, together with: EDTA 4 mM	–	association rate constant	2.01e+06 ± 140000 M⁻¹ s⁻¹
C[C@@H]1NC(=O)[C@H](CC(N)=O)NC(=O)[C@H](Cc2ccccc2)NC(=O)c2cc3ccccc3cc2NC(=O)[C@H](CCCNC(=N)N)NC(=O)[C@@H]2CCCN2C(=O)[C@H]2CCCN2C(=O)[C@H](Cc2ccccc2)NC1=O	Melanocortin receptor 4 (Mus musculus, UniProt P56450)	antagonist, cAMP β-galactosidase reporter	–	no activity up to, together with: MTII	–	antagonist activity	> 100 µM

For quick reference, copied from above:
SMILES	target	assay	test system	conditions	scale	quantity	result
Cn1ccc2c(N3CCN(CCCCOc4ccc5c(c4)NC(=O)CC5)CC3)cccc21	D(2) dopamine receptor (DRD2, Homo sapiens, UniProt P14416)	β-arrestin recruitment, agonist, BRET	–	–	–	Emax	33%
Nc1ncnc2c1ncn2[C@@H]1O[C@H](COP(=O)(O)NP(=O)(O)OP(=O)(O)O)[C@@H](O)[C@H]1O	S-adenosylmethionine synthase isoform type-2 (MAT2A, Homo sapiens, UniProt P31153)	AdoMet formation, substrate	–	enzyme 25 µM, together with: methionine	–	steady-state rate	0.0019 ± 0.00038 s⁻¹
Cn1c(=S)c2[nH]c(SCCc3ccccc3)nc2n(C)c1=O	Androgen receptor (AR, Homo sapiens, UniProt P10275)	reporter gene, antagonist, PSA-luciferase	HeLa-A6	10 µM, 24 h, together with: 5 nM dihydrotestosterone	relative to: maximal activity	remaining activity	114%
